Measurements from different studies.
Each numbered part is a random draw from the data of one study; scales do not carry over between parts.
UniProt Q86YV6, sequence (whole entry, looked up): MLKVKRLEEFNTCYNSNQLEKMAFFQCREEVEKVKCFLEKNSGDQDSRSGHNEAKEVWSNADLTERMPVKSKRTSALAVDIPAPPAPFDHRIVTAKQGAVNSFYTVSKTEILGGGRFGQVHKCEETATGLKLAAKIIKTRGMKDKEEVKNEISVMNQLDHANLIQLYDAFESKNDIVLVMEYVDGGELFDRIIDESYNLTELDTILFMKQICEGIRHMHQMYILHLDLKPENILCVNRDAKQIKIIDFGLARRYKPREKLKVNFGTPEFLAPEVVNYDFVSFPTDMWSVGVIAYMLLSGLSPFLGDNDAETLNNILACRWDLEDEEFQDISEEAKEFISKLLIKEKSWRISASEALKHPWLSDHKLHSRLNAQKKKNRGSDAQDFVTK
UniProt Q00537, sequence (whole entry, looked up): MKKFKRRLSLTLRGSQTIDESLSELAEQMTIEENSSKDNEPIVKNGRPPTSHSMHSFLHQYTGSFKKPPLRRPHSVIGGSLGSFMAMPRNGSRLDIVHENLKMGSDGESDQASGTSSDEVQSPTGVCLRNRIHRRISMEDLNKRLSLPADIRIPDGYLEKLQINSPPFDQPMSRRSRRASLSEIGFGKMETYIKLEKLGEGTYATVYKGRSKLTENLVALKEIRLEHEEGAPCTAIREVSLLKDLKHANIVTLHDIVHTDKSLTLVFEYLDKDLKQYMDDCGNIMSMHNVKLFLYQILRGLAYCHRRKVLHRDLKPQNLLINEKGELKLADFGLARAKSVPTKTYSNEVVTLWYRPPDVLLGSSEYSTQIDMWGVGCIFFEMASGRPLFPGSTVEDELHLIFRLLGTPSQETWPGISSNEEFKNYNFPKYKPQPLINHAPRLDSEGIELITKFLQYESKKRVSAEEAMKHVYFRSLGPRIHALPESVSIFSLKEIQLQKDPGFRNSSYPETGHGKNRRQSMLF
UniProt O75716, sequence (whole entry, looked up): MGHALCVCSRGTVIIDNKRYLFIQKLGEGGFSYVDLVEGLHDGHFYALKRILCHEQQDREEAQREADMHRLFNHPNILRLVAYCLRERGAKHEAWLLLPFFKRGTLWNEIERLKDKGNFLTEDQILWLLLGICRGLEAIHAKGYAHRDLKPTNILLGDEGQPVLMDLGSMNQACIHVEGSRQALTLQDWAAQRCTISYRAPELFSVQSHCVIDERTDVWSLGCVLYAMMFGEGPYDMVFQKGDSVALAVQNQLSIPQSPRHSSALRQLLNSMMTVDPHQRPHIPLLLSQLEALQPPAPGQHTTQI
UniProt Q14680, sequence (whole entry, looked up): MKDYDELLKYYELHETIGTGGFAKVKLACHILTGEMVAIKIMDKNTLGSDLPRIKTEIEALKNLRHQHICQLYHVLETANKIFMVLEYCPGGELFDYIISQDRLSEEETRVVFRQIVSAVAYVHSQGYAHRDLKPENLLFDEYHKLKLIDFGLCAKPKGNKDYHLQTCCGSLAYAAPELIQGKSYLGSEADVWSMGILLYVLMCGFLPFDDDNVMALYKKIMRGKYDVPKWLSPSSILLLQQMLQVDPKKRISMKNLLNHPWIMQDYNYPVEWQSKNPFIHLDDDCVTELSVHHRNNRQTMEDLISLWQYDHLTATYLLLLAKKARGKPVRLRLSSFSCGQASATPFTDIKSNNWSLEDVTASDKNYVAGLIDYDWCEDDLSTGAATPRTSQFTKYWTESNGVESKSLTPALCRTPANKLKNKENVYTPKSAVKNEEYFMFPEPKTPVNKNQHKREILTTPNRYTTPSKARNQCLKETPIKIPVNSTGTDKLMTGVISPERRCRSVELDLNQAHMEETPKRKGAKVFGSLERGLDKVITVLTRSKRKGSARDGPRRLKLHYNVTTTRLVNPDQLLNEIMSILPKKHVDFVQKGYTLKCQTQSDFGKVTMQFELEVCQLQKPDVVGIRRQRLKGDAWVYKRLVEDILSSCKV
UniProt O00238, sequence (whole entry, looked up): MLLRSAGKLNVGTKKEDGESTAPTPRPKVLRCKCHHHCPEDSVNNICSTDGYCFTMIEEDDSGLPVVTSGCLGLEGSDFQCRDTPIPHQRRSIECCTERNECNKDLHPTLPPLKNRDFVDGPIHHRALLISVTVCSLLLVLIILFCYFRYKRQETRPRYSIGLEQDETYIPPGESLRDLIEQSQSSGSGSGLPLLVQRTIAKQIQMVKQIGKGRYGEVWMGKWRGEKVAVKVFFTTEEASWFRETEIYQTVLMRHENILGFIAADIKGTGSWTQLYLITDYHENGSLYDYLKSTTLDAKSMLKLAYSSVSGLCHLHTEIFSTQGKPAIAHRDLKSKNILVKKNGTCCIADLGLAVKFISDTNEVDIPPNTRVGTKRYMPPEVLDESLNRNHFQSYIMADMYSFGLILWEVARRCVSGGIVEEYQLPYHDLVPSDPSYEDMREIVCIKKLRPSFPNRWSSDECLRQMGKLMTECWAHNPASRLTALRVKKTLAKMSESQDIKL
UniProt Q15349, sequence (whole entry, looked up): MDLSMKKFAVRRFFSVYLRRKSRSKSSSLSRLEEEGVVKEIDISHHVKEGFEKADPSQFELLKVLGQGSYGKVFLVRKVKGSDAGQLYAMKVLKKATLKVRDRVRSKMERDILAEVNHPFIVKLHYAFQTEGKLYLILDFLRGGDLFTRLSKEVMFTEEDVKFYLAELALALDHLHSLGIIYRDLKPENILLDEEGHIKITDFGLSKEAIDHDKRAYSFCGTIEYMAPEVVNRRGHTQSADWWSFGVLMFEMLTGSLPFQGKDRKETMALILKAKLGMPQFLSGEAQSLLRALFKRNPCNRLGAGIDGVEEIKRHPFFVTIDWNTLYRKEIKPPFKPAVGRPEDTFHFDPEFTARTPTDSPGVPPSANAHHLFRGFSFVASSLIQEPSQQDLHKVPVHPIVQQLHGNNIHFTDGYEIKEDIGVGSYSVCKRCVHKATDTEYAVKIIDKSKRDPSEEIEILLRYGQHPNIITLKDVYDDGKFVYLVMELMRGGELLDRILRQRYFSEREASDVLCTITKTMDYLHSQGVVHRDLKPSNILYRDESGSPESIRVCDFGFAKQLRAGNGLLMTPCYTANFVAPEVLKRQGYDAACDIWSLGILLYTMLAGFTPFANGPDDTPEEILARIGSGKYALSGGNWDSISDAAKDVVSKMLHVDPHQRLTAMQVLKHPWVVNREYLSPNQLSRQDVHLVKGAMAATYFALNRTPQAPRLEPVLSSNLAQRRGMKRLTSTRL
UniProt Q86SG6, sequence (whole entry, looked up): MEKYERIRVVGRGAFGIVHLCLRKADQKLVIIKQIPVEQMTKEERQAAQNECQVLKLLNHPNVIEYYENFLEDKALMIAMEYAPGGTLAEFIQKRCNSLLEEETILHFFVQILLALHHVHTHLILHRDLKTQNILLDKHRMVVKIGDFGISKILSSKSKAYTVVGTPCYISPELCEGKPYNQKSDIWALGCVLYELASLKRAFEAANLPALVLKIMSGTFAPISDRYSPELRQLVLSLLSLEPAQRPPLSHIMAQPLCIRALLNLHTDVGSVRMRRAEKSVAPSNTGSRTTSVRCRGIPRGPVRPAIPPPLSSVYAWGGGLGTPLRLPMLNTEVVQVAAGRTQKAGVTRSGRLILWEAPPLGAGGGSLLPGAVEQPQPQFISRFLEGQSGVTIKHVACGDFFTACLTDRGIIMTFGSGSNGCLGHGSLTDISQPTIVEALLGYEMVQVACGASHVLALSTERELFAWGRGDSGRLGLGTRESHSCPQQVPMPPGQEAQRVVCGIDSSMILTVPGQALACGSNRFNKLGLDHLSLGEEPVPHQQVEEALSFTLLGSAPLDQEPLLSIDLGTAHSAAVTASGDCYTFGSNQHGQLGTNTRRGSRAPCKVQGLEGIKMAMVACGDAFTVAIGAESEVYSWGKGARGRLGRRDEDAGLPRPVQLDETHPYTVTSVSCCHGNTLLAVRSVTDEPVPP
UniProt Q8N752, sequence (whole entry, looked up): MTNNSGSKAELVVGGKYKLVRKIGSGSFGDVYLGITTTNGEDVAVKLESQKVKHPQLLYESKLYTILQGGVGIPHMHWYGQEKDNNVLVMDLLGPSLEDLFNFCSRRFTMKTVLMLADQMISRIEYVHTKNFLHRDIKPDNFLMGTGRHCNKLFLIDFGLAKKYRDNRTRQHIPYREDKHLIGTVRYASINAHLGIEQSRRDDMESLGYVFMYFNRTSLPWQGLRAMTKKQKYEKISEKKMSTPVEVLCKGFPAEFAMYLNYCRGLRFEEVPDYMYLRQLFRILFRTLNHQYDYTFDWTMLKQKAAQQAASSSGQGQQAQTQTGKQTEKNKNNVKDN

Set 1 — cell line: A-375; concentration: 100 µM; time: 18 h
Compound	viability [%]
CCCCN(CCCC)CC(O)c1cc(Cl)cc2c1-c1ccc(Cl)cc1/C2=C/c1ccc(Cl)cc1 (stereo not shown)	13.5
CCC(=O)NS(=O)(=O)c1ccc(-c2c(-c3ccccc3)noc2C)cc1	101
CCN(CC)CCCC(C)Nc1c2ccc(Cl)cc2nc2ccc(OC)cc12 (stereo not shown)	12.1
Cc1ccccc1C(=O)Nc1ccc(C(=O)N2CCCC(N(C)C)c3ccccc32)cc1 (stereo not shown)	85.6
CC(C(=O)O)c1ccc(CC2CCCC2=O)cc1 (stereo not shown)	99.1
CC(C)Cc1ccc([C@H](C)C(=O)O)cc1	85.9
Cc1ccccc1C(=O)Nc1ccc(C(=O)N2CCCC(O)c3cc(Cl)ccc32)c(C)c1 (stereo not shown)	69.9
Nc1ccc(C(=O)O)c(O)c1	118

Set 2 — species: mouse; matrix: microsomes or S9; concentration: 2 µM; time: 0.5 h
Structure (SMILES)	remaining compound
CC(C)CCN(C)C1CCN(S(=O)(=O)c2ccc(C(C)(C)C)cc2)CC1	3.86%
c1ccc(Oc2ccc(Nc3ncnc4[nH]ncc34)cc2)cc1	6.76%
CCN(CC)CCNc1c2c(nc3cc(-c4cccc(F)c4)nn13)CCCC2	2.01%
COc1ccc(-c2c(-c3ccccc3)nn(-c3ccccc3OC)c2N)cc1OC	25.3%
Cc1cc(C)n(C2CCN(C(=O)c3sc4ncn(C)c(=O)c4c3C)C2)n1 (stereo not shown)	41.9%
O=C(C1c2ccccc2C(=O)N2CCc3ccccc3C12)N1CCC(Cc2ccccc2)CC1 (stereo not shown)	0.0795%
COc1ccc(CC(=O)NCc2csc(C)n2)cc1	48.2%
c1ccc2c(c1)CC(n1ccnc1-c1cc3n(n1)CCNC3)CO2 (stereo not shown)	39.9%
COc1ccc(C2CC(c3cccs3)=NN2S(C)(=O)=O)cc1OC (stereo not shown)	46.8%

Set 3 — concentration: 1 µM
Compound: Cc1cc(NC(=O)c2cccc(S(F)(F)(F)(F)F)c2)cc(-n2ccn3nc(-c4cccnc4)cc23)c1
target	effect on	method	remaining binding [%]
Cyclin-dependent kinase 17 (CDK17, Homo sapiens, UniProt Q00537)	cell-free assay	competition with immobilised ligand	83.8
Inhibitor of nuclear factor kappa-B kinase subunit alpha (CHUK, Homo sapiens, UniProt O15111)	cell-free assay	competition with immobilised ligand	71.1
Serine/threonine-protein kinase Nek3 (NEK3, Homo sapiens, UniProt P51956)	cell-free assay	competition with immobilised ligand	50.5
Serine/threonine-protein kinase 16 (STK16, Homo sapiens, UniProt O75716)	cell-free assay	competition with immobilised ligand	53.9
Casein kinase I isoform alpha-like (CSNK1A1L, Homo sapiens, UniProt Q8N752)	cell-free assay	competition with immobilised ligand	100
SRSF protein kinase 1 (SRPK1, Homo sapiens, UniProt Q96SB4)	cell-free assay	competition with immobilised ligand	100
Myosin light chain kinase family member 4 (MYLK4, Homo sapiens, UniProt Q86YV6)	cell-free assay	competition with immobilised ligand	91.4
MAP kinase-interacting serine/threonine-protein kinase 2 (MKNK2, Homo sapiens, UniProt Q9HBH9)	cell-free assay	competition with immobilised ligand	85.2
Receptor-type tyrosine-protein kinase FLT3, autoinhibited (FLT3, Homo sapiens, UniProt P36888)	cell-free assay	competition with immobilised ligand	100
Mitogen-activated protein kinase kinase kinase 15 (MAP3K15, Homo sapiens, UniProt Q6ZN16)	cell-free assay	competition with immobilised ligand	100
Ribosomal protein S6 kinase alpha-4, N-terminal kinase domain (RPS6KA4, Homo sapiens, UniProt O75676)	cell-free assay	competition with immobilised ligand	100
Maternal embryonic leucine zipper kinase (MELK, Homo sapiens, UniProt Q14680)	cell-free assay	competition with immobilised ligand	100
Non-receptor tyrosine-protein kinase TYK2, JH1 (TYK2, Homo sapiens, UniProt P29597)	cell-free assay	competition with immobilised ligand	51
Cyclin-dependent kinase 19 (CDK19, Homo sapiens, UniProt Q9BWU1)		competition binding	84.1
Dual specificity protein kinase TTK (TTK, Homo sapiens, UniProt P33981)	cell-free assay	competition with immobilised ligand	44.8
Bone morphogenetic protein receptor type-1B (BMPR1B, Homo sapiens, UniProt O00238)	cell-free assay	competition with immobilised ligand	100
RAC-beta serine/threonine-protein kinase (AKT2, Homo sapiens, UniProt P31751)	cell-free assay	competition with immobilised ligand	82.5
Epidermal growth factor receptor (EGFR, Homo sapiens, UniProt P00533, T790M)	cell-free assay	competition with immobilised ligand	100
Casein kinase II subunit alpha' (CSNK2A2, Homo sapiens, UniProt P19784)	cell-free assay	competition with immobilised ligand	100
Epidermal growth factor receptor (EGFR, Homo sapiens, UniProt P00533, L858R)	cell-free assay	competition with immobilised ligand	100
LIM domain kinase 2 (LIMK2, Homo sapiens, UniProt P53671)	cell-free assay	competition with immobilised ligand	95.3
Dual specificity tyrosine-phosphorylation-regulated kinase 1B (DYRK1B, Homo sapiens, UniProt Q9Y463)	cell-free assay	competition with immobilised ligand	61.2
Ephrin type-A receptor 8 (EPHA8, Homo sapiens, UniProt P29322)	cell-free assay	competition with immobilised ligand	100
AP2-associated protein kinase 1 (AAK1, Homo sapiens, UniProt Q2M2I8)	binding		100
Casein kinase I isoform delta (CSNK1D, Homo sapiens, UniProt P48730)	cell-free assay	competition with immobilised ligand	100

Set 4 — effect on: enzyme activity; concentration: 5 µM
SMILES: O=C(Nc1cnn(-c2csc(C(=O)NC3COC3)c2)c1)Nc1ccccc1Cl
target	action	baseline	remaining activity [%]
Wee1-like protein kinase (WEE1, Homo sapiens, UniProt P30291)		untreated control	122
Serine/threonine-protein kinase N1 (PKN1, Homo sapiens, UniProt Q16512)		untreated control	108
Mitogen-activated protein kinase kinase kinase kinase 1 (MAP4K1, Homo sapiens, UniProt Q92918)		untreated control	127
Serine/threonine-protein kinase PAK 6 (PAK6, Homo sapiens, UniProt Q9NQU5)		untreated control	127
Tyrosine-protein kinase Fer (FER, Homo sapiens, UniProt P16591)		untreated control	100
Serine/threonine-protein kinase Nek8 (NEK8, Homo sapiens, UniProt Q86SG6)	inhibitor		107
Ribosomal protein S6 kinase alpha-2 (RPS6KA2, Homo sapiens, UniProt Q15349)		untreated control	102

Set 5 — method: PRP chromatography estimate; matrix: 1,9-decadiene/PBS; pH: 7.4
Structure (SMILES)	logD
CC(C)C[C@@H]1NC(=O)[C@H](CC(C)C)NC(=O)[C@@H](C(C)C)NC(=O)[C@@H](C)NC(=O)[C@H](C(C)C)NC(=O)[C@H](Cc2cscn2)NC(=O)[C@H](C)NC1=O	-2.83
CC(C)C[C@@H]1NC(=O)[C@H](CC(C)C)NC(=O)[C@@H](C(C)C)NC(=O)[C@H](C(C)C)NC(=O)[C@H](C(C)C)NC(=O)[C@H](C)NC(=O)[C@H](C)NC1=O	-1.95
CC(C)C[C@@H]1NC(=O)[C@H](CC(C)C)NC(=O)[C@H](CC(C)C)NC(=O)[C@H](C(C)C)NC(=O)[C@H](C)NC(=O)[C@H](CCC(=O)N2CCCC2)NC(=O)[C@H](C)NC1=O	-2.4
CC(C)C[C@@H]1NC(=O)[C@H](CC(C)C)NC(=O)[C@@H](CC(C)C)NC(=O)[C@H](C)NC(=O)[C@@H](Cc2cscn2)NC(=O)[C@H](C)NC(=O)[C@H](CCC(=O)N2CCCC2)NC1=O	-2.86
CC(C)C[C@@H]1NC(=O)[C@H](Cc2cscn2)NC(=O)[C@H](Cc2cscn2)NC(=O)[C@H](C)NC(=O)[C@@H](CCC(=O)N2CCCC2)NC(=O)[C@H](CC(C)C)NC(=O)[C@@H](CC(C)C)NC1=O	-2.29
CC(C)C[C@@H]1NC(=O)[C@H](Cc2cscn2)NC(=O)[C@H](C)NC(=O)[C@H](C)NC(=O)[C@@H](CCC(=O)N2CCCC2)NC(=O)[C@H](CC(C)C)NC(=O)[C@@H](CC(C)C)NC1=O	-2.8
CC(C)C[C@@H]1NC(=O)[C@H](CC(C)C)NC(=O)[C@@H](CC(C)C)NC(=O)[C@H](C(C)C)NC(=O)[C@@H](CCC(=O)N2CCCC2)NC(=O)[C@H](C)NC(=O)[C@H](C)NC1=O	-2.54
CC(C)C[C@@H]1NC(=O)[C@H](CC(C)C)NC(=O)[C@@H](CC(C)C)NC(=O)[C@H](CC(C)C)NC(=O)[C@@H](Cc2cscn2)NC(=O)[C@H](Cc2cscn2)NC(=O)[C@H](CCC(=O)N2CCCC2)NC1=O	-0.73
CC(C)C[C@@H]1NC(=O)[C@@H](C)NC(=O)[C@H](Cc2cscn2)NC(=O)[C@@H](CC(C)C)NC(=O)[C@H](C(C)C)NC(=O)[C@H](CC(C)C)NC(=O)[C@@H](CC(C)C)NC1=O	-0.295

For quick reference, copied from above (set 4):
target	action	baseline	remaining activity [%]
Mitogen-activated protein kinase kinase kinase kinase 1 (MAP4K1, Homo sapiens, UniProt Q92918)		untreated control	127
Serine/threonine-protein kinase PAK 6 (PAK6, Homo sapiens, UniProt Q9NQU5)		untreated control	127
Serine/threonine-protein kinase N1 (PKN1, Homo sapiens, UniProt Q16512)		untreated control	108
Tyrosine-protein kinase Fer (FER, Homo sapiens, UniProt P16591)		untreated control	100
Ribosomal protein S6 kinase alpha-2 (RPS6KA2, Homo sapiens, UniProt Q15349)		untreated control	102
Serine/threonine-protein kinase Nek8 (NEK8, Homo sapiens, UniProt Q86SG6)	inhibitor		107
Wee1-like protein kinase (WEE1, Homo sapiens, UniProt P30291)		untreated control	122
